Measurements gathered from unrelated publications.
Protocols differ between the studies behind these lines. Several values in a cell are separate wells, animals, samples, runs or records. ± gives the spread as reported.
GLP1R: Glucagon-like peptide 1 receptor (GLP1R, Homo sapiens, UniProt P43220)

`c1ccc(C(NCc2cccnc2)(c2ccccc2)c2ccccc2)cc1`: “slope of normalized current vs voltage” 2.9 V⁻¹ (Potassium voltage-gated channel subfamily KQT member 1, with KCNE1 (KCNQ1, Homo sapiens, UniProt P51787); IKs; 100 pM, above +50 mV, with KCNE1).
`CCOc1ccc(NC(=O)OC(Cn2nc(C(C)C)cc2C(C)C)C(C)C)cc1` (stereo not drawn) has a current of 561 ± 50% (Neuronal acetylcholine receptor; alpha4/beta2, (α4)2(β2)3 stoichiometry (Homo sapiens, UniProt P17787+P43681); ACh-evoked current, two-electrode voltage clamp; 1 µM, high-sensitivity stoichiometry, added: ACh 1 µM; relative to: ACh alone).
`Nc1ccc(C(=O)O)cc1` has a current density of -11.1 pA/pF and -8.37 pA/pF and -9.84 pA/pF and -3.5 pA/pF and -12.2 pA/pF and -2.3 pA/pF (BEST1, with wild-type BEST1 (Homo sapiens, UniProt O76090, A243T); whole-cell patch clamp; HEK293 co-expressing WT and A243T mutant; concentration not given, membrane potential -40 mV).
`Nc1nc2c(ncn2[C@@H]2O[C@@H]3COP(=O)(O)O[C@H]3[C@H]2O)c(=O)[nH]1` has a Hill coefficient of 2 (Cone cGMP-gated channel (Morone saxatilis, UniProt Q3I0N1+Q3I0N2); channel current, agonist, suction electrode; cone outer segments; single cone shown, added: 0 µM Ca2+).
Under “fold potency loss”, `CC[C@H](C)[C@H](NC(=O)[C@H](Cc1ccccc1)NC(=O)[C@H](CCC(=O)O)NC(=O)[C@H](CCCNC(=N)N)NC(=O)[C@H](C)NC(=O)[C@H](C)NC(=O)[C@H](CCC(N)=O)NC(=O)[C@H](CCC(=O)O)NC(=O)[C@H](CCC(=O)O)NC(=O)[C@H](CC(C)C)NC(=O)[C@H](Cc1ccc(O)cc1)NC(=O)[C@H](CO)NC(=O)[C@H](CO)NC(=O)[C@@H](NC(=O)[C@H](CC(=O)O)NC(=O)[C@H](CO)NC(=O)[C@@H](NC(=O)[C@H](Cc1ccccc1)NC(=O)[C@@H](NC(=O)CNC(=O)[C@H](CCC(=O)O)NC(=O)[C@H](C)NC(=O)CCc1cnc[nH]1)[C@@H](C)O)[C@@H](C)O)C(C)C)C(=O)N[C@@H](C)C(=O)N[C@@H](Cc1c[nH]c2ccccc12)C(=O)N[C@@H](CC(C)C)C(=O)N[C@H](C(=O)N[C@@H](CCCCNC(=O)COCCOCCNC(=O)COCCOCCNC(=O)CC[C@H](NC(=O)CCCCCCCCCCCCCCCCC(=O)O)C(=O)O)C(=O)NCC(=O)N[C@@H](CCCNC(=N)N)C(=O)N[C@@H](CCCCNc1c(NCCCCCN(O)C(=O)CCC(=O)NCCCCCN(O)C(=O)CCC(=O)NCCCCCN(O)C(C)=O)c(=O)c1=O)C(=O)NCC(=O)NCC(=O)N[C@@H](CO)C(=O)N[C@@H](CCCCNc1c(NCCCCCN(O)C(=O)CCC(=O)NCCCCCN(O)C(=O)CCC(=O)NCCCCCN(O)C(C)=O)c(=O)c1=O)C(=O)NCC(=O)NCC(=O)N[C@@H](CO)C(=O)N[C@@H](CCCCNc1c(NCCCCCN(O)C(=O)CCC(=O)NCCCCCN(O)C(=O)CCC(=O)NCCCCCN(O)C(C)=O)c(=O)c1=O)C(=O)O)C(C)C` is recorded as 2.9 (GLP1R; agonist, CRE luciferase reporter; BHK cells; Zr-loaded DFO conjugate, added: 0% HSA; relative to: parent peptide).
With `O=C([O-])CN(CCN(CC(=O)[O-])Cc1cc(CCC(=O)NCCCCCC(=O)NCCCC[C@H](NC(=O)N[C@@H](CCC(=O)O)C(=O)O)C(=O)O)ccc1[O-])Cc1cc(CCC(=O)O)ccc1[O-].[68Ga+3].[OH3+]` the Bmax was 19.8 µmol/mg (FOLH1 (Homo sapiens, UniProt Q04609); saturation binding; LNCaP).
`CC(C)(O/N=C(\C(=O)N[C@@H]1C(=O)N2C(C(=O)[O-])=C(C[n+]3ccccc3)CS[C@H]12)c1csc(N)n1)C(=O)O` has a Km of 729 ± 58 µM (beta-lactamase RAD-1 (Riemerella anatipestifer); substrate, continuous spectrophotometric hydrolysis; 30 °C).
`Oc1ccc(/C=C/c2cc(O)cc(O)c2)cc1` has a ∆G of -8.31 kcal/mol (O-methyltransferase (Sorghum bicolor, UniProt A0A1B6PFV1); ITC; endothermic site, two-site model, added: SFG).
For `CCN1CCC[C@H]1CNC(=O)c1c(O)c(Cl)cc(Cl)c1OC`, “log2 fold change” read -0.231 (MRGPRX2 (Homo sapiens, UniProt Q96LB1); β-arrestin recruitment, TANGO luminescence; concentration not given; relative to: basal luminescence).
`COc1cc(-c2cncc3c2CN(C)Cc2cc(N4CCNCC4)ccc2-3)cc(OC)c1OC` has a remaining activity of 88% (Phosphatidylinositol 4,5-bisphosphate 3-kinase catalytic subunit beta isoform, with p85 alpha (Pik3cb, Mus musculus, UniProt Q8BTI9); kinase activity; 1 µM, p110b/p85a)(m mouse, added: ATP 10 µM; relative to: DMSO).
For `[O-][S+]1CCCCS1` (stereo not drawn), the target engagement was 50.8 % cross-linked dimer (SOD1 (Homo sapiens, UniProt P00441, G94A); intact protein LC-MS; SOD1 G93A transgenic mice, whole blood; oral, 150 mg/kg, 8 h, mean of two mice).
Under “luminescence signal reduction”, `CN1CCN(S(=O)(=O)c2ccc(-c3cnc(N)c(C(=O)Nc4cccnc4)n3)cc2)CC1` is recorded as -6.55% (NanoBiT HiBiT/LgBiT luciferase; inhibitor, HiBiT luminescence counterscreen; conditioned medium only; 5 µM, 24 h; relative to: vehicle).
`O=C(OCc1ccccc1)c1ccc(O)cc1` has an effective concentration of 160 µM (CARM1 (Homo sapiens, UniProt Q86X55); reporter gene, inhibitor; HEK293).
With `COc1cccc(-n2nc3c4cc(Cl)ccc4[nH]cc-3c2=O)c1` the efficacy was 159 ± 13.4% (Gamma-aminobutyric acid receptor subunit alpha-6/beta-3, with delta subunit (Gabra6/Gabrb3, Rattus norvegicus, UniProt P30191+P63079); ion current, modulator, two-electrode voltage clamp; 10 µM, α6β3δ receptor, added: GABA EC3-10).
For `O=C(O)C1CCCNC1` (stereo not drawn), “normalised MST signal” read 0.961 (SLC6A6 (Homo sapiens, UniProt P31641, Y138A); binding, microscale thermophoresis; 500 µM, room temperature, added: 50 nM labelled protein; higher = more binding).
With `O=c1nc(SCc2cc(F)cc(C(F)(F)F)c2)nc(SCc2ccc3nc(OCCN4CCOCC4)ccc3c2)[nH]1` the decatenated DNA was 94.3% (TOP2A (Homo sapiens, UniProt P11388); decatenation; 7.8 µM, replicate 2).
With `Nc1nc2c(ncn2[C@@H]2O[C@H](COP(=O)(O)O)[C@@H](O)[C@H]2O)c(=O)[nH]1` the reaction rate was 0.371 s⁻¹ and 0.197 s⁻¹ and -0.654 s⁻¹ (GUK1 (Homo sapiens, UniProt Q16774, E72A); enzyme activity, NADH-coupled; 15.62 µM).
With `Cc1cn([C@H]2C[C@H](O)[C@@H](COP(=O)(O)OP(=O)(O)OP(=O)(O)O)O2)c(=O)[nH]c1=O` the apparent Km was 1.2 ± 0.1 µM (nrdE, with NrdF (Bacillus subtilis, UniProt P50620); GDP reduction, allosteric activator; 37 °C, added: Mn(III)2-Y• NrdF).
`COc1cc(Nc2ncc3c(n2)-c2ccc(Cl)cc2C(c2c(F)cccc2OC)=NC3)ccc1C(=O)O` gave a remaining activity of 105% (ADRBK2; kinase activity; 1 µM).
`Cc1ccc(N2CC(C(N)=O)CC2=O)cc1` (stereo not drawn) has a fold enrichment of 0.915 (Transcription intermediary factor 1-beta, PHD-bromodomain (TRIM28, Homo sapiens, UniProt Q13263); binding, affinity selection mass spectrometry; relative to: other proteins in batch).
For `O=C1NC(=O)/C(=C/c2ccc(-c3ccc(F)cc3O)o2)S1`, the remaining activity was 52% (STK11 (Homo sapiens, UniProt Q15831); enzyme activity; 10 µM).
`C=C1CN(S(=O)(=O)c2ccc(C)cc2)CCCN(Cc2ccccc2)CCCN(S(=O)(=O)c2ccc(C)cc2)C1` has an FLuc activity of 0.979 (CD4 signal peptide FLuc; HEK293 reporter-transfected; concentration not given, 3 h, unit not given, added: cycloheximide; relative to: mock).
`Oc1c(Br)cc(Oc2ccc(Br)cc2Br)cc1Br` gave an apparent Vmax of 24.1 nmol/min/mg protein (SULT1B1 (Homo sapiens, UniProt O43704); sulfonation, substrate).
`CC[C@H](C)[C@H](NC(=O)[C@H](Cc1ccccc1)NC(=O)[C@H](CCC(=O)O)NC(=O)[C@H](CCCNC(=N)N)NC(=O)[C@H](C)NC(=O)[C@H](C)NC(=O)[C@H](CCC(N)=O)NC(=O)[C@H](CCC(=O)O)NC(=O)[C@H](CCC(=O)O)NC(=O)[C@H](CC(C)C)NC(=O)[C@H](Cc1ccc(O)cc1)NC(=O)[C@H](CO)NC(=O)[C@H](CO)NC(=O)[C@@H](NC(=O)[C@H](CC(=O)O)NC(=O)[C@H](CO)NC(=O)[C@@H](NC(=O)[C@H](Cc1ccccc1)NC(=O)[C@@H](NC(=O)CNC(=O)[C@H](CCC(=O)O)NC(=O)[C@H](C)NC(=O)CCc1cnc[nH]1)[C@@H](C)O)[C@@H](C)O)C(C)C)C(=O)N[C@@H](C)C(=O)N[C@@H](Cc1c[nH]c2ccccc12)C(=O)N[C@@H](CC(C)C)C(=O)N[C@H](C(=O)N[C@@H](CCCCNC(=O)COCCOCCNC(=O)COCCOCCNC(=O)CC[C@H](NC(=O)CCCCCCCCCCCCCCCCC(=O)O)C(=O)O)C(=O)NCC(=O)N[C@@H](CCCNC(=N)N)C(=O)N[C@@H](CCCCNc1c(NCCCCCN(O)C(=O)CCC(=O)NCCCCCN(O)C(=O)CCC(=O)NCCCCCN(O)C(C)=O)c(=O)c1=O)C(=O)NCC(=O)NCC(=O)N[C@@H](CO)C(=O)N[C@@H](CCCCNc1c(NCCCCCN(O)C(=O)CCC(=O)NCCCCCN(O)C(=O)CCC(=O)NCCCCCN(O)C(C)=O)c(=O)c1=O)C(=O)NCC(=O)NCC(=O)N[C@@H](CO)C(=O)N[C@@H](CCCCNc1c(NCCCCCN(O)C(=O)CCC(=O)NCCCCCN(O)C(=O)CCC(=O)NCCCCCN(O)C(C)=O)c(=O)c1=O)C(=O)NCC(=O)NCC(=O)N[C@@H](CO)C(=O)N[C@@H](CCCCNc1c(NCCCCCN(O)C(=O)CCC(=O)NCCCCCN(O)C(=O)CCC(=O)NCCCCCN(O)C(C)=O)c(=O)c1=O)C(=O)O)C(C)C`: “fold potency loss” 2.3 (GLP1R; agonist, CRE luciferase reporter; BHK cells; Zr-loaded DFO conjugate, added: 1% HSA; relative to: parent peptide).
`[N-]=[N+]=NCC(=O)N[C@H]1[C@H]([C@H](O)[C@H](O)CO)O[C@@](OC[C@H]2O[C@@H](Oc3ccc([N+](=O)[O-])cc3)[C@H](O)[C@@H](O)[C@H]2O)(C(=O)O)C[C@@H]1O`: “sialic acid release” 29% (Sialidase-2 (Homo sapiens, UniProt Q9Y3R4); substrate; 0.3 mM, 30 min, pH 5.0, 37 °C).
`CC[C@H](C)[C@@H]1NC(=O)[C@H](CCCNC(=N)N)NC(=O)[C@@H]2CCCN2C(=O)[C@H](Cc2ccccc2)NC(=O)[C@H]([C@@H](C)O)NC(=O)CNC(=O)[C@H](CC(C)C)NC(=O)[C@@H]2CCCN2C(=O)[C@H]([C@@H](C)O)NC(=O)[C@H](Cc2c[nH]c3ccccc23)NC(=O)[C@H](Cc2ccc(O)cc2)NC(=O)[C@H]([C@@H](C)CC)NC(=O)[C@H]([C@@H](C)O)NC(=O)[C@H]([C@@H](C)O)NC(=O)[C@@H](Cc2ccc(O)cc2)NC(=O)CSC[C@@H](C(N)=O)NC(=O)[C@H](CCCNC(=N)N)NC1=O` gave a ΔH of -11.6 ± 0.1 kcal/mol (Vacuolar protein sorting-associated protein 29 (VPS29, Homo sapiens, UniProt Q9UBQ0); binding, ITC; 25 °C, protein alone).
Under “fold potency loss”, `CC[C@H](C)[C@H](NC(=O)[C@H](Cc1ccccc1)NC(=O)[C@H](CCC(=O)O)NC(=O)[C@H](CCCNC(=N)N)NC(=O)[C@H](C)NC(=O)[C@H](C)NC(=O)[C@H](CCC(N)=O)NC(=O)[C@H](CCC(=O)O)NC(=O)[C@H](CCC(=O)O)NC(=O)[C@H](CC(C)C)NC(=O)[C@H](Cc1ccc(O)cc1)NC(=O)[C@H](CO)NC(=O)[C@H](CO)NC(=O)[C@@H](NC(=O)[C@H](CC(=O)O)NC(=O)[C@H](CO)NC(=O)[C@@H](NC(=O)[C@H](Cc1ccccc1)NC(=O)[C@@H](NC(=O)CNC(=O)[C@H](CCC(=O)O)NC(=O)[C@H](C)NC(=O)CCc1cnc[nH]1)[C@@H](C)O)[C@@H](C)O)C(C)C)C(=O)N[C@@H](C)C(=O)N[C@@H](Cc1c[nH]c2ccccc12)C(=O)N[C@@H](CC(C)C)C(=O)N[C@H](C(=O)N[C@@H](CCCCNC(=O)COCCOCCNC(=O)COCCOCCNC(=O)CC[C@H](NC(=O)CCCCCCCCCCCCCCCCC(=O)O)C(=O)O)C(=O)NCC(=O)N[C@@H](CCCNC(=N)N)C(=O)N[C@@H](CCCCNc1c(NCCCCCN(O)C(=O)CCC(=O)NCCCCCN(O)C(=O)CCC(=O)NCCCCCN(O)C(C)=O)c(=O)c1=O)C(=O)NCC(=O)NCC(=O)N[C@@H](CO)C(=O)N[C@@H](CCCCNc1c(NCCCCCN(O)C(=O)CCC(=O)NCCCCCN(O)C(=O)CCC(=O)NCCCCCN(O)C(C)=O)c(=O)c1=O)C(=O)O)C(C)C` is recorded as 1.8 (GLP1R; agonist, CRE luciferase reporter; BHK cells; Zr-loaded DFO conjugate, added: 1% HSA; relative to: parent peptide).
